Assay results of several laboratories.
Protocols differ between the studies behind these lines. ± marks the error that the study gave.
UniProt P08684, sequence (whole entry, looked up): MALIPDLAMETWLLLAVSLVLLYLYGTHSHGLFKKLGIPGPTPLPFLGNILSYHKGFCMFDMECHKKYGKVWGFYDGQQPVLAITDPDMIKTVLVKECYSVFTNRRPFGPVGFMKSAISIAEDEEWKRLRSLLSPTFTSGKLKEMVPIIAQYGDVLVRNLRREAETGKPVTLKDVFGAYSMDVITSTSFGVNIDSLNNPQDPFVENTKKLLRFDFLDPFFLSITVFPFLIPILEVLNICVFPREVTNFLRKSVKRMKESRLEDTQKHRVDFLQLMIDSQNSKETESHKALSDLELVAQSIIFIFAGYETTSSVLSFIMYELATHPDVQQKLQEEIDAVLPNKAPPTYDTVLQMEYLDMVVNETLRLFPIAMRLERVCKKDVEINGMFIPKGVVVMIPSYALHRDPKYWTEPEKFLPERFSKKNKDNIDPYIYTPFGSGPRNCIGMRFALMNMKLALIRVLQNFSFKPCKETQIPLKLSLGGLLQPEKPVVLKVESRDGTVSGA

CCc1cc(C(=O)NC)c2nccc(N3CCc4c(cc(Cn5ccnc5)cc4-c4cn(C)nc4C(F)(F)F)C3=O)c2c1: “blood CREA change” -6.5% (Sprague Dawley rats; oral, 100 mg/kg twice daily, 7 days; baseline: vehicle).
With COc1c(O)c(C)cc2c1C(=O)c1c(ccc(O)c1O)C2=O the viability was 84 ± 112% (HK-2 co-cultured with HepaRG; MTT; 66.67 µM, 24 h; baseline: untreated control).
The clearance of CC(C)(C)c1sc2ncnc(Oc3c(F)cccc3OC(F)(F)F)c2c1-c1ccc(Cl)cc1 is reported as 6 mL/min/kg (wild-type mice, plasma; intravenous, 1 mg/kg).
For O=C(OC(C(F)(F)F)C(F)(F)F)N1CCN(Cc2cccc(Oc3ccccc3)c2)CC1, the k2 was 1.61 min⁻¹ (PET blocking study; rhesus monkey, brain Pons; 0.3 mg/kg, compound pretreatment, together with: [18F]T-401 tracer).
For COc1cc2c3c(n(CCCN4CCOCC4)c(=O)c2cc1OC)-c1cc2c(cc1C3=O)OCO2, the Vz was 748 ± 240 L/m² (beagle dog, female, plasma; intravenous infusion, 100 mg/m^2, 1 h infusion, vehicle 1).
For CCO[C@H]1CCN(Cc2c(OC)cc(C)c3[nH]ccc23)[C@H](c2ccc(C(=O)O)cc2)C1, “incidence impaired fasting glucose” read 0% (PNH patients, active haemolysis; oral, 25 mg, 4 weeks, treatment).
With C=CC(=O)NC1CCN(c2ncc3ncnc(Nc4ccc(Oc5ccc6c(c5)ncn6C)c(C)c4)c3n2)CC1 the blood-to-plasma ratio was 0.828 (item: total radioactivity; healthy male human, whole blood and plasma; oral, 60 mg, 10 h, geometric mean).
The retention factor of CC(=O)N[C@@H](CC(N)=O)C(=O)N[C@@H](CC(N)=O)C(=O)N[C@@H](CC(C)C)C(=O)N[C@H]1CSSC[C@@H](C(=O)N[C@H](C(N)=O)[C@@H](C)O)NC(=O)[C@H](CCCNC(=N)N)NC(=O)[C@H](Cc2c[nH]cn2)NC(=O)[C@H](Cc2cccc3ccccc23)NC(=O)CNC(=O)[C@H](Cc2c[nH]c3ccccc23)NC(=O)[C@H](CC(=O)O)NC(=O)[C@H](CCC(N)=O)NC(=O)[C@H](Cc2c[nH]c3ccccc23)NC(=O)[C@H](C(C)C)NC1=O is reported as 2.089 ± 0.006 (isocratic RP-HPLC, C18; 32% acetonitrile, phosphate pH 7.4, 1% TFA; 25 °C).
With CCCCc1ccc(-c2ccc(C#N)cc2)cc1 the fetal accumulation was 0.047 ± 0.048 ng/g (Sprague-Dawley rat, female, fetus; 1000 ng/mL in perfusate, 50 (unit not given), middle dose, mixture of 21 LCMs).
COc1ccc2c(c1)CN(C(=O)CCN1CCC(Cc3ccccc3)CC1)CC[S@@+]2[O-] — result for “systolic blood pressure”: 143 ± 17 mmHg (telemetry; conscious male beagle dogs; intravenous, NG, 4 h).
Cc1cc([C@H]2C[C@H]3[C@@H](CF)SC(N)=N[C@@]3(c3ccc(F)cc3F)CO2)on1 gave a brain concentration of 15 nM (male 129/SVE wild-type mouse, brain; subcutaneous, 30 mg/kg, 14 h).
Under “adverse drug reaction incidence”, Cc1c(Cl)c(C)[n+]([O-])c(Cl)c1-c1noc(-c2cc(O)c(O)c([N+](=O)[O-])c2)n1 is recorded as 0% (item: Belching; healthy Chinese subjects; oral, 100 mg, 4 days).
Under “treatment-related adverse events”, C=CCN1CC(=O)N2[C@@H](Cc3ccc(O)cc3F)C(=O)N(Cc3cccc(N4CC(N5CCN(CC)CC5)C4)n3)C[C@@H]2N1C(=O)NCc1ccccc1 is recorded as 10.5% (item: decreased appetite; human advanced solid tumours; concentration not given, expansion any grade).
O=C(Nc1nc2cccc(-c3ccc(CN4CCS(=O)(=O)CC4)cc3)n2n1)C1CC1: “patients with increased blood calcium” 8.3% (rheumatoid arthritis patients; oral, 100 mg twice daily, 4 weeks, TEAE regardless of relatedness).
O=C(O)c1cc(O)c2c(c1)C(=O)c1cccc(O)c1C2=O has a viability of 101 ± 10.3% (HK-2 co-cultured with HepaRG; MTT; 66.67 µM, 24 h; baseline: untreated control).
For O=C(O)CCC(=O)O.[2H]C([2H])([2H])Oc1cc(C)c2[nH]ccc2c1CN1CC[C@@H](C2CC2)C[C@H]1c1ccc(C(=O)O)cc1, “subjects with TEAE Constipation” read 50% (multiple ascending dose; healthy Chinese subjects; 200 mg once daily).
O=C1NCCc2nc(OCc3cccc(F)c3)ccc21: “Irwin test score” 0 (item: loss of Placing; Sprague-Dawley rat male; oral, 100 mg/kg, 0 min; baseline: baseline, direction not given).
Under “critical aggregation concentration”, CN(CCCNC(=O)c1cc(NC(=O)c2cc(NC(=O)c3cc(NC(=O)c4nc(NC(=O)C[C@@H](N)CNC(=O)c5cc(NC(=O)c6cc(NC(=O)c7cc(NC(=O)c8nccn8C)cn7C)cn6C)cn5C)cn4C)cn3C)cn2C)cn1C)CCCNC(=S)Nc1ccc(-c2c3ccc(=O)cc-3oc3cc(O)ccc23)c(C(=O)O)c1 is recorded as 1 µM (dynamic light scattering; 0.1% DMSO in PBS; 25 °C).
The effective permeability of Cc1nn(CC(F)(F)F)cc1Nc1ncc(Br)c(NCCc2cnc[nH]2)n1 is reported as 1.51e-06 cm/s (PAMPA; PBS; 5 h, pH 7.4).
With CC[C@H]1[C@@H](O)[C@@H]2[C@H](CC[C@]3(C)[C@@H]([C@H](C)CCNC(=O)NS(=O)(=O)c4ccc(C(C)(C)C)cc4)CC[C@@H]23)[C@@]2(C)CC[C@@H](O)C[C@@H]12 the Cmax mean was 33.1 ng/mL (Cytochrome P450 3A4 (CYP3A4, Homo sapiens, UniProt P08684); human, plasma; 10 mg, day 1, compound alone).

Some of these lines once more:
Under “critical aggregation concentration”, CN(CCCNC(=O)c1cc(NC(=O)c2cc(NC(=O)c3cc(NC(=O)c4nc(NC(=O)C[C@@H](N)CNC(=O)c5cc(NC(=O)c6cc(NC(=O)c7cc(NC(=O)c8nccn8C)cn7C)cn6C)cn5C)cn4C)cn3C)cn2C)cn1C)CCCNC(=S)Nc1ccc(-c2c3ccc(=O)cc-3oc3cc(O)ccc23)c(C(=O)O)c1 is recorded as 1 µM (dynamic light scattering; 0.1% DMSO in PBS; 25 °C).
The effective permeability of Cc1nn(CC(F)(F)F)cc1Nc1ncc(Br)c(NCCc2cnc[nH]2)n1 is reported as 1.51e-06 cm/s (PAMPA; PBS; 5 h, pH 7.4).
With CC[C@H]1[C@@H](O)[C@@H]2[C@H](CC[C@]3(C)[C@@H]([C@H](C)CCNC(=O)NS(=O)(=O)c4ccc(C(C)(C)C)cc4)CC[C@@H]23)[C@@]2(C)CC[C@@H](O)C[C@@H]12 the Cmax mean was 33.1 ng/mL (Cytochrome P450 3A4 (CYP3A4, Homo sapiens, UniProt P08684); human, plasma; 10 mg, day 1, compound alone).
